# Assay results collected from several papers.
# Compare with care: the assays were run in different laboratories.
SMILES,test,system,conditions,endpoint,result
C=CC(=O)NC1CCN(c2ncc3ncnc(Nc4ccc(Oc5ccc6c(c5)ncn6C)c(C)c4)c3n2)CC1,,male patients,"oral, dose not given, on-treatment adverse events",patients with Toothache,0%
CCO[C@H]1CCN(Cc2c(OC)cc(C)c3[nH]ccc23)[C@H](c2ccc(C(=O)O)cc2)C1,item: Headache,"PNH patients, active haemolysis","oral, 100 mg twice daily, extension phase",patients with adverse event,20%
Cc1cc(NC2CCN(C(=O)OC3CCN(C(=O)/C=C/CN(C)C)C3)CC2)n2ncc(C(C)C)c2n1 (stereo not shown),,patients with advanced solid tumours,"dose not given, QD arm, any grade",patients with Headache,9%
C[C@@H](c1ccc2nccn2c1)n1nnc2ncc(-c3cnn(C)c3)nc21,item: treatment-related grade ≥3 Nausea,EGFR-mutant MET-altered NSCLC,"oral, dose not given, all",patients with adverse events,3%
COc1cc(Nc2ncc3c(n2)-c2ccc(Cl)cc2C(c2c(F)cccc2OC)=NC3)ccc1C(=O)O,"item: Anorexia, all grades","cancer patients, phase 1/2","oral, dose not given, together with: pembrolizumab",patients with adverse event,21%
CNC(=O)c1ccc(-c2cnc3ncc(Cc4ccc5ncccc5c4)n3n2)cc1F,item: Dyspnea,cancer patients,"oral, dose not given, dose escalation, grade 3-4",patients with adverse event,0%
CCOc1c([C@H](C)n2nc(C)c3c(N)ncnc32)cc(Cl)c(F)c1[C@@H]1CNC(=O)C1,item: QRS ≤100 ms,previously treated B-cell malignancy,"oral, 5 mg once daily, baseline below thresholds",patients,100%
CNC(=O)c1cc(Oc2ccc(NC(=O)Nc3cc(C(C)(C)C)nn3-c3ccc4ncccc4c3)c(F)c2)ccn1,,patients,"oral, dose not given, cycles 1 and 2, Medium Cmax subgroup",patients with cardiac disorders,7%
C[C@@H](Nc1cc(F)cc(F)c1)c1cc(C(=O)N(C)C)cc2c(=O)cc(N3CCOCC3)oc12,item: Hypersensitivity,advanced solid tumour patients,"oral, dose not given, dose expansion",patients discontinuing for AE,0%
Cc1cc(-c2nnc(N)nc2-c2ccc(F)cc2)cc(Cl)n1,item: Nausea,"other solid tumours, IO-naive","oral, 100 mg once daily, all grades",patients with treatment-related AE,73.7%

# For quick reference, copied from above:
SMILES,test,system,conditions,endpoint,result
CNC(=O)c1ccc(-c2cnc3ncc(Cc4ccc5ncccc5c4)n3n2)cc1F,item: Dyspnea,cancer patients,"oral, dose not given, dose escalation, grade 3-4",patients with adverse event,0%
